Measured values from different studies.
Lines come from different studies, so protocols differ.

CCN(CCO)CCCC(C)Nc1ccnc2cc(Cl)ccc12 (stereo not drawn)  patients with adverse event (item: Epistaxis grade 2; newly diagnosed glioblastoma patients; oral, 800 mg/dose, with radiotherapy and temozolomide): 33%
CC(=O)c1c(C)c2cnc(Nc3ccc(C4CCN(CCS(C)(=O)=O)CC4)cn3)nc2n(C2CCCC2)c1=O  patients with anaemia (HR+/HER2- advanced breast cancer patients; oral, 100 mg bid, grade 3/4, monotherapy arm): 0%
N[C@@H]1c2ccccc2OC12CCN(c1cnc3c(N4CCCc5ncccc54)n[nH]c3n1)CC2  patients with fatal TEAE (advanced solid tumour patients; oral, 40 mg once daily): 0%
CO[C@H]1C[C@@H]2CC[C@@H](C)[C@@](O)(O2)C(=O)C(=O)N2CCCC[C@H]2C(=O)O[C@H]([C@H](C)C[C@@H]2CC[C@@H](OC(=O)NCCOCCOCCOCCOCCOCCOCCOCCOCCC(=O)N3CCc4cc(Cn5nc(-c6ccc7oc(N)nc7c6)c6c(N)ncnc65)ccc4C3)[C@H](OC)C2)C[C@@H](O)[C@H](C)/C=C(\C)[C@@H](O)[C@@H](OC)C(=O)[C@H](C)C[C@H](C)/C=C/C=C/C=C/1C  patients with AE (item: treatment-emergent AEs; patients with advanced solid tumours; intravenous, 1.6 mg/3 mg, grade ≥3, weekly): 0%
Nc1nc2cc(-c3ccc4ncc(C(=O)N5CCOCC5)n4c3)ccc2o1  patients with adverse event (item: Anemia; advanced solid tumour patients; dose not given, all grades, all doses): 21%
C[C@@H]1OC(=O)NN=C1c1ccc(-c2ccc(F)cc2)c(C(F)(F)F)c1  patients with muscle spasms (patients, phase I trial; oral, dose not given, all arms, worst grade 1): 40%
C=CCNc1c(O)cc2c(O)c1C[C@@H](C)C[C@H](OC)[C@H](O)[C@@H](C)/C=C(\C)[C@H](OC(N)=O)[C@@H](OC)/C=C\C=C(/C)C(=O)N2  patients with lipase increase (unresectable or metastatic sarcoma; intravenous, 300 mg/m^2, grade 3-4 lab change): 33%
CN1CC[C@@H](c2c(O)cc(O)c3c(=O)cc(-c4ccc(C(F)(F)F)cc4Cl)oc23)[C@@H]1CO  patients with adverse event (item: Nausea; AML; oral, 200 mg, intermittent dosing): 40%
O=C1Nc2cc3[nH]nc(-c4ccncc4)c3cc2CN1Cc1ccccc1  patients with dyspnoea (CTCAE v4.03; advanced solid tumour patients; intravenous, 4.8 mg/kg, schedules 1/2): 25%

Some of these lines once more:
CC(=O)c1c(C)c2cnc(Nc3ccc(C4CCN(CCS(C)(=O)=O)CC4)cn3)nc2n(C2CCCC2)c1=O  patients with anaemia (HR+/HER2- advanced breast cancer patients; oral, 100 mg bid, grade 3/4, monotherapy arm): 0%
